Results collected from several papers.
Protocols differ between the studies behind these lines. “And” joins repeats or separate records; there may be more than shown. ± marks the error that the study gave.
TXK: Tyrosine-protein kinase TXK (TXK, Homo sapiens, UniProt P42681)

For `CCC[N+]1(CC)CCN(c2ccc(C#N)cc2)CC1.[I-]`, the maximal response was 0.97 ± 0.06 (CHRNA9 (Homo sapiens, UniProt Q9UGM1); agonist, two-electrode voltage clamp; Xenopus laevis oocytes; alpha9 expressed alone, with RAPSYN, unit not given; reference: acetylcholine maximum).
The binding enthalpy of `Nc1nc2c(ncn2[C@@H]2O[C@H](COP(=O)(O)OP(=O)(O)OP(=O)(O)O)[C@@H](O)[C@H]2O)c(=O)[nH]1` is reported as -15.1 ± 0.8 kcal/mol (GTP 3',8-cyclase (moaA, Staphylococcus aureus, UniProt P69848, R268K); isothermal titration calorimetry; concentration not given, 25 °C, R268K mutant, anaerobic).
Under “stoichiometry second site”, `C[n+]1cn([C@@H]2O[C@H](COP(=O)([O-])OP(=O)(O)OP(=O)(O)OC[C@H]3O[C@@H](n4cnc5c(=O)[nH]c(N)nc54)[C@H](O)[C@@H]3O)[C@@H](O)[C@H]2O)c2nc(N)[nH]c(=O)c21` is recorded as 1.07 (m7GpppX diphosphatase (DCS1, Saccharomyces cerevisiae, UniProt Q06151, H268N/K126A); binding, ITC).
With `O=C(CF)NC1C(O)CC(OC2C(O)C(CO)OC(Oc3ccc([N+](=O)[O-])cc3)C2O)(C(=O)O)OC1C(O)C(O)CO` (stereo not drawn) the kcat was 0.27 ± 0.01 s⁻¹ (Sialidase-2 (Homo sapiens, UniProt Q9Y3R4); substrate; 10 min, pH 5.0, 37 °C).
`O=C(O)Cc1c[nH]cn1`: “normalised MST signal” 0.0304 (SLC6A6 (Homo sapiens, UniProt P31641, Y138A); binding, microscale thermophoresis; 61 nM, room temperature, together with: 50 nM labelled protein; higher = more binding).
With `O=C(NNC(=O)c1csnn1)c1ccc(Cl)cc1` the remaining activity was 5.23% (Acetyl-CoA synthetase (Cryptococcus neoformans, UniProt J9VFT1); 25 µM).
With `CN1CCN(c2cc(-c3ccncc3)c(-c3ccc4ccccc4c3)nn2)CC1` the inhibition was 20.1% (GPR68 (Homo sapiens, UniProt Q15743); antagonist, FLIPR; 10 µM).
The inhibition of `O=C(Nc1cnccc1Cl)N1CCN(Cc2ccc3c(c2)OC(F)(F)O3)CC1` is reported as 2% (PTGIR (Homo sapiens, UniProt P43119); radioligand binding, inhibitor; 10 µM, human, together with: [3H]iloprost).
`C[C@H]1CN(c2n[nH]c3nc(N[C@H]4CC[C@H](NS(=O)(=O)CCC(F)(F)F)CC4)ncc23)CCO1` gave a relative abundance of 1.03 (HADHA (Homo sapiens, UniProt P40939); inhibitor, Kinobeads competition profiling; 0.16 µM; reference: vehicle).
With `C[C@@H](O)[C@@H](CO)NC(=O)[C@@H](CCCNC(=N)N)NC(=O)[C@@H]1CCCN1C(=O)[C@@H]1CSSC[C@H](NC(=O)[C@H](Cc2ccccc2)NC(=O)CN2CCN(CC(=O)O)CCN(CC(=O)O)CCN(CC(=O)O)CC2)C(=O)N[C@@H](Cc2ccc(O)cc2)C(=O)N[C@@H](Cc2ccccc2)C(=O)N[C@@H](CCC(N)=O)C(=O)N[C@@H](CC(N)=O)C(=O)N1` [gallium-68 labelled] the tissue uptake was 0.19 %ID/g (Wistar rat, healthy, sublingual gland; intravenous, 8 MBq, 120 min).
For `COc1ccccc1C(=O)NC1CCCN(Cc2cccc(-c3ccc(C)c(Cl)c3)c2)C1` (stereo not drawn), the maximum response was -12.2% (Vero-E6; CellTiter-Glo ATP; 72 h, retest 8-point duplicates; reference: DMSO 0%, hyamine -100%, more negative, more toxic).
The ΔS of `Nc1ncnc2c1ncn2[C@@H]1O[C@H](COP(=O)(O)OP(=O)(O)NP(=O)(O)O)[C@@H](O)[C@H]1O` is reported as 18.1 cal/mol/K (Cell cycle histidine kinase CckA, cytoplasmic region (Caulobacter vibrioides, UniProt Q9X688); ITC; without c-di-GMP).
`O=C(c1ccc(Cl)cc1)N1CCN2C(=O)N(OC(=O)N3CCOc4ccccc43)C(=O)C2C1` (stereo not drawn) has a peptide ratio of 1.1 and 1.03 and 1.05 and 1 (LYPLAL1 (Homo sapiens, UniProt Q5VWZ2); MS-based ABPP; SW-620 conditioned medium; 10 µM, 1 h, 37 °C; reference: compound over DMSO, lower = more inhibition).
`COc1cc2c(Oc3ccc4[nH]c(C)cc4c3F)ccnc2cc1OCC1(N)CC1`: “grade 1 or 2 Fever” 9.1% (paediatric recurrent refractory sarcoma; 12 mg).
The potentiation of `Nc1ccncc1` is reported as 88% (Glutamate receptor 2 (Homo sapiens, UniProt P42262); ion current, positive allosteric modulator, automated patch clamp; HEK293; 3 µM).
`COc1cc(/C=C/c2ccc(O)cc2)cc(OC)c1` has a ∆H of -8.53 ± 0.155 kcal/mol (O-methyltransferase (Sorghum bicolor, UniProt A0A1B6PFV1, W279A); isothermal titration calorimetry; together with: RSV).
`CC[C@H](C)[C@@H]1NC(=O)[C@@H]2CCCN2C(=O)[C@H](CC(C)C)NC(=O)[C@H](CC(C)C)NC(=O)CNC(=O)[C@@H](NC(=O)[C@@H](NC(=O)[C@H](CC(=O)O)NC(=O)CNC(=O)[C@@H](NC(=O)[C@H](C)NC(=O)CNC(=O)[C@H](CCCCN)NC(=O)[C@H](CC(C)C)NC(=O)[C@H](CC(C)C)NC(=O)[C@H](CCCCN)NC(=O)CNC(=O)[C@@H](NC(=O)[C@@H](N)CC(C)C)C(C)C)C(C)C)C(C)C)CSSC[C@@H](C(=O)O)NC1=O` — result for “log2 fold change”: -0.808 (RNA-seq, item: Rnf5; mouse, traumatic brain injury model, frontal cortex and hippocampus; dose not given; reference: TBI alone).
`CC[C@H](C)[C@H](NC(=O)[C@H](Cc1ccccc1)NC(=O)[C@H](CCC(=O)O)NC(=O)[C@H](CCCNC(=N)N)NC(=O)[C@H](C)NC(=O)[C@H](C)NC(=O)[C@H](CCC(N)=O)NC(=O)[C@H](CCC(=O)O)NC(=O)[C@H](CCC(=O)O)NC(=O)[C@H](CC(C)C)NC(=O)[C@H](Cc1ccc(O)cc1)NC(=O)[C@H](CO)NC(=O)[C@H](CO)NC(=O)[C@@H](NC(=O)[C@H](CC(=O)O)NC(=O)[C@H](CO)NC(=O)[C@@H](NC(=O)[C@H](Cc1ccccc1)NC(=O)[C@@H](NC(=O)CNC(=O)[C@H](CCC(=O)O)NC(=O)[C@H](C)NC(=O)CCc1c[nH]cn1)[C@@H](C)O)[C@@H](C)O)C(C)C)C(=O)N[C@@H](C)C(=O)N[C@@H](Cc1c[nH]c2ccccc12)C(=O)N[C@@H](CC(C)C)C(=O)N[C@H](C(=O)N[C@@H](CCCNC(=N)N)C(=O)NCC(=O)N[C@@H](CCCNC(=N)N)C(=O)N[C@@H](CCCCNC(=O)COCCOCCNC(=O)COCCOCCNC(=O)CC[C@H](NC(=O)CCCCCCCCCCCCCCCCC(=O)O)C(=O)O)C(=O)NCC(=O)NCC(=O)N[C@@H](CO)C(=O)N[C@@H](CCCCNc1c(NCCCCCN(O)C(=O)CCC(=O)NCCCCCN(O)C(=O)CCC(=O)NCCCCCN(O)C(C)=O)c(=O)c1=O)C(=O)O)C(C)C` [zirconium-89 labelled] has a tissue uptake of 0.07 %ID/g (rat, duodenum content; intravenous, 3 nmol/kg, 24 h).
For `COc1ccc(N2C(=O)N(c3c(C)cccc3Cl)Cc3cnc(Nc4ccc(C5CCN(C)CC5)cc4OC)nc32)nc1`, the inhibition was 3% (PIM1 (Homo sapiens, UniProt P11309); kinase activity; 0.5 µM).
For `O=C(O)COP(=O)(O)O`, the Ki ratio was 24 (Triosephosphate isomerase (TPI1, Gallus gallus, UniProt P00940, G210A/S211G/Y208T); enzyme activity, competitive inhibitor, GPDH/NADH-coupled; pH 8.3, 25 °C, ionic strength 0.1 NaCl, together with: glyceraldehyde 3-phosphate substrate; reference: mutant over wild type).
For `COc1cc(N)c(Cl)cc1C(=O)NC1CN2CCC1CC2` (stereo not drawn), “log2 fold change” read -0.21 (GPR52 (Homo sapiens, UniProt Q9Y2T5); β-arrestin recruitment, TANGO luminescence; concentration not given; reference: basal luminescence).
For `O=C[C@H](O)COP(=O)(O)O`, the Km was 51 µM (Triosephosphate isomerase (Trypanosoma brucei, UniProt Q385L6, P168A/I172A); substrate).
For `CN1CCc2[nH]c3ccccc3c2CC1.O=C(O)/C=C/C(=O)O`, “recovery time constant” read 9.4 ± 0.7 s (Nicotinic acetylcholine receptor alpha9/alpha10 (Rattus norvegicus, UniProt P43144+Q9JLB5); ion current, inhibitor, two-electrode voltage clamp; Xenopus laevis oocytes; 3 µM, rat receptor, together with: acetylcholine 10 µM).
With `NC(=O)C1=CN([C@@H]2O[C@H](COP(=O)(O)OP(=O)(O)OC[C@H]3O[C@@H](n4cnc5c(N)ncnc54)[C@H](O)[C@@H]3O)[C@@H](O)[C@H]2O)C=CC1` the Km was 110 µM (ADH1 (Saccharomyces cerevisiae, UniProt P00330, H49Q); enzyme activity, substrate; pH 7.3, 30 °C).
`CN1CC[C@@H](c2c(O)cc(O)c3c(=O)cc(-c4ccc(C(F)(F)F)cc4Cl)oc23)[C@@H]1CO` — result for “patients with adverse event”: 0% (item: Pyrexia; AML; oral, 200 mg, intermittent dosing).
`CC1(C)C(C=C(Cl)Cl)C1C(=O)OCc1cccc(Oc2ccccc2)c1` (stereo not drawn) has a remaining activity of 97.9% (uncharacterized protein (Anopheles coluzzii, UniProt A0A6E8VQK1); enzyme activity, inhibitor; Sf9 cell homogenate; 49.36 µM, 0.1667 h, together with: α-naphthyl acetate substrate; reference: no inhibitor).
With `CC1CCCN(CCCNC(=O)c2cc(Sc3ccc(F)cc3)nc3ccccc23)C1` (stereo not drawn) the maximum response was -1.86% (Vero-E6; CellTiter-Glo ATP; 72 h, retest 8-point duplicates; reference: DMSO 0%, hyamine -100%, more negative, more toxic).
The selectivity ratio of `COc1ccc(F)cc1C(=O)NCc1ccc(-c2nn([C@@H](C)C(F)(F)F)c(N)c2C(N)=O)cc1` is reported as > 7600 (TXK; target engagement, NanoBRET; HEK293; reference: TXK over BTK).
The inhibition of `O=C(Nc1cccnn1)N1CCC(=Cc2cccc(Oc3ccc(C(F)(F)F)cn3)c2)CC1` is reported as 29% (dopamine D4.2 receptor, human; binding; 50 µM, together with: [3H]spiperone).
For `Cc1cc(SC2=C(O)C[C@@](CCc3ccc(N)cc3)(C(C)C)OC2=O)c(C(C)(C)C)cc1CO`, “binding fold change” read 20.3 (FABP1 (Homo sapiens, UniProt P07148); affinity selection mass spectrometry; 100 nM, together with: pooled compounds; reference: other proteins).
With `O=C(O)CCC(=O)C(=O)O` the Ki/Km was ~100 fold (HIF1AN (Homo sapiens, UniProt Q9NWT6); substrate inhibition, steady-state kinetics).
With `O=c1cc(CSc2ccc(N=Cc3ccccc3)cc2)occ1O` the fluorescence decrease was 81% (PPO3 (Agaricus bisporus, UniProt C7FF04); intrinsic fluorescence; 50 µM; reference: 0 µM).
`COc1cc(Nc2ncc(F)c(Nc3ccc4c(n3)NC(=O)C(C)(C)O4)n2)cc(OC)c1OC` has an inhibition of 89% (AAK1 (Homo sapiens, UniProt Q2M2I8); KINOMEscan; 10 µM).
`[2H]c1c([2H])c([C@]2([2H])CCCN2C(=O)C(C)(C)Oc2ccc3cn[nH]c3c2)c([2H])c([2H])c1C([2H])([2H])[2H]` gave a remaining binding of 87% (TXK; KINOMEscan; 1 µM; reference: DMSO control).
For `O=C(O)C[C@H](NC(=O)[C@H](CC(=O)O)NC(=O)[C@H](CC(=O)O)NC(=O)[C@H](CC(=O)O)NC(=O)[C@H](CC(=O)O)NC(=O)[C@H](CC(=O)O)NC(=O)[C@H](CC(=O)O)NC(=O)[C@H](CC(=O)O)NC(=O)[C@H](CC(=O)O)NC(=O)[C@H](CC(=O)O)NC(=O)[C@H](CC(=O)O)NC(=O)[C@H](CCCCNC(=O)c1ccc(C(=O)NCCOCCOB2BBBBBB3BBBB3B2)cc1)NC(=O)CN1CCN(CC(=O)O)CCN(CC(=O)O)CCN(CC(=O)O)CC1)C(=O)O` [gallium-67 labelled], the tissue uptake was 0.32 %ID/g (ddY male mice, heart; intravenous, 37 kBq, 1 h).
With `CC[C@H](C)[C@H](NC(=O)[C@H](CO)NC(=O)[C@H](Cc1ccc(O)cc1)NC(=O)[C@H](CC(=O)O)NC(=O)[C@H](CO)NC(=O)[C@@H](NC(=O)[C@H](Cc1ccccc1)NC(=O)[C@@H](NC(=O)CNC(=O)[C@H](CCC(=O)O)NC(=O)[C@H](C)NC(=O)[C@@H](N)Cc1ccc(O)cc1)[C@@H](C)O)[C@@H](C)CC)C(=O)N[C@@H](C)C(=O)N[C@@H](CCSC)C(=O)N[C@@H](CC(=O)O)C(=O)N[C@@H](CCCCN)C(=O)N[C@H](C(=O)N[C@@H](Cc1c[nH]cn1)C(=O)N[C@@H](CCC(N)=O)C(=O)N[C@@H](CCC(N)=O)C(=O)N[C@@H](CC(=O)O)C(=O)N[C@@H](Cc1ccccc1)C(=O)N[C@H](C(=O)N[C@@H](CC(N)=O)C(=O)N[C@@H](Cc1c[nH]c2ccccc12)C(=O)N[C@@H](CC(C)C)C(=O)N[C@@H](CC(C)C)C(=O)N[C@@H](C)C(=O)N[C@@H](CCC(N)=O)C(=O)N[C@@H](CCCCN)C(=O)NCC(=O)N[C@@H](CCCCN)C(=O)N[C@@H](CCCCN)C(=O)N[C@@H](CC(N)=O)C(=O)N[C@@H](CC(=O)O)C(=O)N[C@@H](Cc1c[nH]c2ccccc12)C(=O)N[C@@H](CCCCN)C(=O)N[C@@H](Cc1c[nH]cn1)C(=O)N[C@@H](CC(N)=O)C(=O)N[C@H](C(=O)N[C@H](C(=O)N[C@@H](CCC(N)=O)C(=O)O)[C@@H](C)O)[C@@H](C)CC)C(C)C)[C@@H](C)CC` the Emax was 104% (Gastric inhibitory polypeptide receptor (Mus musculus, UniProt Q0P543); β-arrestin-2 recruitment, agonist).
